Published values gathered from unrelated publications.
A part holds a random share of what one study measured. “And” joins repeats or separate records; there may be more than shown.
UniProt O75385, sequence (whole entry, looked up): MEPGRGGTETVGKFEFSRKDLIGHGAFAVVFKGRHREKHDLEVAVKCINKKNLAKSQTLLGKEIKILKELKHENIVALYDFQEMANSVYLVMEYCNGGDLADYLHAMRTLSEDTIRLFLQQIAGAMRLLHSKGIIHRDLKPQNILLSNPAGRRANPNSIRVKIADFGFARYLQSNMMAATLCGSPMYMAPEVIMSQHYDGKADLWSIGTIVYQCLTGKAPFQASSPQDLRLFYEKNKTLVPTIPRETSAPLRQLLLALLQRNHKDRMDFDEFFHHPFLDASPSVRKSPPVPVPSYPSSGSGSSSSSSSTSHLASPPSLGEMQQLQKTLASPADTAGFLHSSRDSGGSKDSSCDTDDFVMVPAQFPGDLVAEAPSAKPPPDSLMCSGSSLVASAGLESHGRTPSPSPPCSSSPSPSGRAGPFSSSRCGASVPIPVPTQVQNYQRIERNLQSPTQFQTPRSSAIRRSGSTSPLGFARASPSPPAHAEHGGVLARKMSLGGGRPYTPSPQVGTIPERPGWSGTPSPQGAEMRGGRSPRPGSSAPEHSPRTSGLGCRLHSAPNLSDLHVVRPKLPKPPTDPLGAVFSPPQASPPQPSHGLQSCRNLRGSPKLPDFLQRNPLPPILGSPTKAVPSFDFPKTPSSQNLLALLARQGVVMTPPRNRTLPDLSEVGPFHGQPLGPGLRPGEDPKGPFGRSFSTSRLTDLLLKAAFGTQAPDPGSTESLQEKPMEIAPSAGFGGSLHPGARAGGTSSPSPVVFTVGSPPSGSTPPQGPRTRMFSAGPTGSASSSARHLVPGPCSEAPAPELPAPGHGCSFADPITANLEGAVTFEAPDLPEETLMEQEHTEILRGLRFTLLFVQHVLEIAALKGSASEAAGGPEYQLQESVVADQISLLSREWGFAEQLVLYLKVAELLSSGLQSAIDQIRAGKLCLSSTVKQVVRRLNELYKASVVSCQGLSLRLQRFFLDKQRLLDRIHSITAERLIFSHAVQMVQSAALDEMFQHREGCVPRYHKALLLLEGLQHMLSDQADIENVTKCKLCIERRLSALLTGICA
UniProt P53350, sequence (whole entry, looked up): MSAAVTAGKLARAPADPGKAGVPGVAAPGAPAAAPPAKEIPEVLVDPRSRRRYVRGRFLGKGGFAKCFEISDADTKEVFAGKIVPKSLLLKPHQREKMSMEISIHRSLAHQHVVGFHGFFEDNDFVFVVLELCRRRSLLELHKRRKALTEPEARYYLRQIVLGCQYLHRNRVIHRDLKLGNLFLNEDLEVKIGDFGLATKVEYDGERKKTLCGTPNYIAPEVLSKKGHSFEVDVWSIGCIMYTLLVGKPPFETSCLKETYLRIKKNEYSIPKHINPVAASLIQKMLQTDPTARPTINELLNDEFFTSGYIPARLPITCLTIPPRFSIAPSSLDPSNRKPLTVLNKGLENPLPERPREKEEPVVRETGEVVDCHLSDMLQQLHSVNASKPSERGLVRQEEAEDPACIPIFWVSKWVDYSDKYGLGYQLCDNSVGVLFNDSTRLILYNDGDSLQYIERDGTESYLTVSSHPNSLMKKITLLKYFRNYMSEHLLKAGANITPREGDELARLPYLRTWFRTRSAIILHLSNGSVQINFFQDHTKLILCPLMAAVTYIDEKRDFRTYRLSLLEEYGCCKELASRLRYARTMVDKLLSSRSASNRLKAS
UniProt O94806, sequence (whole entry, looked up): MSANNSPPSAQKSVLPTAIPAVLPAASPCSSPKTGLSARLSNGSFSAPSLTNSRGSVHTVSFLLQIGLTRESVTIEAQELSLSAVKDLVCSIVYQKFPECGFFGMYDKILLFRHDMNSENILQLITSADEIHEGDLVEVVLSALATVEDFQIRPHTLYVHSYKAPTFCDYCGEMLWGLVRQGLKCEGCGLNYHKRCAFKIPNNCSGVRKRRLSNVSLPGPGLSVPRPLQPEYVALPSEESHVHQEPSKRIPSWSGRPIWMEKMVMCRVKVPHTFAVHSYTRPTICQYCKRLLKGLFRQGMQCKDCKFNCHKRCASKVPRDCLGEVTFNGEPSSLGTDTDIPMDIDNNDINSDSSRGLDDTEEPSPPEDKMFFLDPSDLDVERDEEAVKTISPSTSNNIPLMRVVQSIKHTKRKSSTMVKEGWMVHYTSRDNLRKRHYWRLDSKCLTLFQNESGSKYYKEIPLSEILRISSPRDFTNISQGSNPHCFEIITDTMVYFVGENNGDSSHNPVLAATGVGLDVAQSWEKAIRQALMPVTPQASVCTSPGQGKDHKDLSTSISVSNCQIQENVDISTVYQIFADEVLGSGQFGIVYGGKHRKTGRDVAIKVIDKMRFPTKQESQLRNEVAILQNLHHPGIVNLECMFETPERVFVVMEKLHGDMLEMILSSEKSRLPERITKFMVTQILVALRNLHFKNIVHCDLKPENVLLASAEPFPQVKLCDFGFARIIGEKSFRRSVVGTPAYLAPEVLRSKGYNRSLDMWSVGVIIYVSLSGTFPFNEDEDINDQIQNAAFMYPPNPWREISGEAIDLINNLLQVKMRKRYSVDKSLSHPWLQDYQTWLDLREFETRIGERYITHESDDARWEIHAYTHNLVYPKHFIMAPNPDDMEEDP
UniProt Q7L7X3, sequence (whole entry, looked up): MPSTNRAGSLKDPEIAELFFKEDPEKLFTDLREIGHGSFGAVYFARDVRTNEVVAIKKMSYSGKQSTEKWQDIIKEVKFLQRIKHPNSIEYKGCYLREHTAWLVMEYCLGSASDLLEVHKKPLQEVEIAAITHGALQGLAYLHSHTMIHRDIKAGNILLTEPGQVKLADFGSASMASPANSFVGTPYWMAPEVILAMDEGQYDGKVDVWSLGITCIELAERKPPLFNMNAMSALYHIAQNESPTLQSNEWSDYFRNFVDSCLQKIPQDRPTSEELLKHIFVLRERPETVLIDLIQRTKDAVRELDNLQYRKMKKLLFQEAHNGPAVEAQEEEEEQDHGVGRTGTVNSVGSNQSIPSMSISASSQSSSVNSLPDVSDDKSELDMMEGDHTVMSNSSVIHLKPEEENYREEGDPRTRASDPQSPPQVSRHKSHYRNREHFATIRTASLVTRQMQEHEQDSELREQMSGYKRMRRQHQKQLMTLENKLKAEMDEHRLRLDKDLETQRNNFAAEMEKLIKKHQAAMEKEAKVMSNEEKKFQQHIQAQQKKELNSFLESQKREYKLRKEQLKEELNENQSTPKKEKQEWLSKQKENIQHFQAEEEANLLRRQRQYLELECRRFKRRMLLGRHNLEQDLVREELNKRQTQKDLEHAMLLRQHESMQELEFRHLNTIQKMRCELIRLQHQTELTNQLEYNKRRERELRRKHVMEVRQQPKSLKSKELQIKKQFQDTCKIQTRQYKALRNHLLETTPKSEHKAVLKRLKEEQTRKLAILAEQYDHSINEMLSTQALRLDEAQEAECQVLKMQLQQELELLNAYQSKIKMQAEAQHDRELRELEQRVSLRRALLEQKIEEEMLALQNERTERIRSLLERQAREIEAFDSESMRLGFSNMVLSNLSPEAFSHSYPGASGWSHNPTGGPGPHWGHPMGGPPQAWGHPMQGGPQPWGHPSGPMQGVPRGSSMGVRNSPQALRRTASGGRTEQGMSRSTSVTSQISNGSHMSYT
UniProt Q16620, sequence (whole entry, looked up): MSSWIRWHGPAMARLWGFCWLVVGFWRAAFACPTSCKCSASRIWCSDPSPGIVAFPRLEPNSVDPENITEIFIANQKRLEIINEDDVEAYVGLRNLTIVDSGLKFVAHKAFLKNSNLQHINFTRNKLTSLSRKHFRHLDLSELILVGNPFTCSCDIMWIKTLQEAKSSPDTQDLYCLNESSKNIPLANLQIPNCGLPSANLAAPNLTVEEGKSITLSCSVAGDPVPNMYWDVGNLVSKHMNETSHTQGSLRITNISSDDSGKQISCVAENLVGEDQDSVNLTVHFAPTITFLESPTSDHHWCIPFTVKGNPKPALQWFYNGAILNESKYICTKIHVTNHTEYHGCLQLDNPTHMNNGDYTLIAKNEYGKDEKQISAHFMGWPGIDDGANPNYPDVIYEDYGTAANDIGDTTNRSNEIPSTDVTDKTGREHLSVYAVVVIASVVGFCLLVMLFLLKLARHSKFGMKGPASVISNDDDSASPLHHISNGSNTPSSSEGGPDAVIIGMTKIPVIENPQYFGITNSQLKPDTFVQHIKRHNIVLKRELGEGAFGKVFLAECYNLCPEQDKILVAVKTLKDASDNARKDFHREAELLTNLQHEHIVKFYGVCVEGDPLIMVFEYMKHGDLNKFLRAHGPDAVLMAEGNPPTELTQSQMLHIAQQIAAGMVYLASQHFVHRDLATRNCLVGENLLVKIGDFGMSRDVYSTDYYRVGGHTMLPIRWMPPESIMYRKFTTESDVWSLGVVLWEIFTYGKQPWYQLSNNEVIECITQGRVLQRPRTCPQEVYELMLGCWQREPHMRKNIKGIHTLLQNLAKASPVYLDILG
UniProt O43353, sequence (whole entry, looked up): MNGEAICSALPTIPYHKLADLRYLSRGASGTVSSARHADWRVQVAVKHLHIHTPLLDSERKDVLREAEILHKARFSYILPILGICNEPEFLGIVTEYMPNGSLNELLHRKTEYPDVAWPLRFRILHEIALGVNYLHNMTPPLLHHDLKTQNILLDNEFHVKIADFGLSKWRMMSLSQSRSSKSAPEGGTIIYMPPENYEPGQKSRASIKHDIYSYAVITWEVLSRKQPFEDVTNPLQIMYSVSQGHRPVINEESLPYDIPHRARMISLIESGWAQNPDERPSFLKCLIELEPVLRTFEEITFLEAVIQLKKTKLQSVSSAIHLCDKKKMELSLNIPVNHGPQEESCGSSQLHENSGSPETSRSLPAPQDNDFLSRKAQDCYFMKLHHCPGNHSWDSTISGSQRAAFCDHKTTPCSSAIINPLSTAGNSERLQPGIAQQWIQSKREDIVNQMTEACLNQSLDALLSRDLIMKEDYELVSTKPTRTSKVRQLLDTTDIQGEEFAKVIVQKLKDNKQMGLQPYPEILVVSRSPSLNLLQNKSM

Series 1 — method: RNA Bind-n-Seq; form: RNA; matrix: in vitro; concentration: 365 nM; relative to: no-protein control; reading: higher = stronger binding
Target: RNA binding protein fox-1 homolog 2, RRM domain, GST-SBP tag (RBFOX2, Homo sapiens, UniProt O43251-10, residues 100-194)
Notes: natural RNA segment, single round, ends assumed
Shared flanks, not repeated: GGGAGUUCUACAGUCCGACGAUC … UGGAAUUCUCGGGUGCCAA
For `AAAGCUUAUAUAUUUGUAGCAAAGUUAUUCUUAAAUAUGAAUUAUGUUAUAACUUAGUGACUUUUGAUUUCUAGAGGUGUAAAUGAGGAUGUAAAAAUUGAUAUAGUUGU`, “RBNS enrichment (R)” read 0.806.
`AAUAUGCAAACUCCAUCUCAAAACUACUGUCUUUCACCUUCCCAAAUCUCUAUCCUCGUGUGCUUCAAGCUCUAUAACAACCAUAUCAUGAGGUAUUUGCAAAGGAAAAC` — result for “RBNS enrichment (R)”: 0.703.
For `UGUUUUAACUGCCUUUCUGUUGAACUGUGGGGCUCUGAUUUGUGUCUAGAUUAUUGUAUAUUCUCACUGGUAUGCUGUUCCCUGGGGGGUGUUCUGUGUCCGACGCUGAG`, “RBNS enrichment (R)” read 0.963.
`UGUUGCAUUAUUUUGAAUAUUGUCUUUUCAUUUUAAUAAAGUUAUAUUACUUAUUUAUGACACCGUUAAUAAUGUGUCUUGUCUAAACUCUUAUAGGAUGUCUCAAGCAA`: “RBNS enrichment (R)” 0.718.
`GGGCUACUGUAUACAGUGUACAAUGUGUAUUUCUUCAACCAUAUAUUUUAAAAAGACGUACAUAGAAACUUAGGCACUUUGCUAUUUCUUUUCUAAACUAUCAAAAACUC` — result for “RBNS enrichment (R)”: 0.583.
`GAUAAUUGAAGGGUACUUCUGUCUGCUCCAAUUUCCAUUCCUUGGUAUACUCAGUAUGUCCUAGUAAGGAAGGCUUUCCACUCUACUGGCUCCUUAAGAAGCAAAAGUAG` — result for “RBNS enrichment (R)”: 0.407.
`CCUCCUGCAGUACCCACACCAUCACCACUGCUUUCUCUUCCAACAGUGAUCUGUAUUCUUAGUUUCAUUAUUUUCUUUUGAUUGAUAUGACACUAUAUAAAAUUUUCAUU`: “RBNS enrichment (R)” 0.683.
Under “RBNS enrichment (R)”, `UGCCCAUCAUGGCAUUUUCACAUGUCCCAUAUGCCCCUCCUGUCUUAUUCCACUGCUUCUCCCAGCAUUCUGGUGCCUCCAAGCCAUCCCCUCCCACCACCAGCUCUAAG` is recorded as 0.979.

Series 2 — SMILES: COc1ccc(Cl)cc1NC(=O)Nc1cc(C)nc2ccccc12; observed: enzyme activity; action: inhibitor; concentration: 0.5 µM; relative to: control
It gave 98.6% for remaining activity (Mitogen-activated protein kinase kinase kinase 9 (MAP3K9, Homo sapiens, UniProt P80192)).
Serine/threonine-protein kinase D3 (PRKD3, Homo sapiens, UniProt O94806) — remaining activity: 97.1%.
For Receptor-interacting serine/threonine-protein kinase 2 (RIPK2, Homo sapiens, UniProt O43353): remaining activity read 82.7%.
It gave 105% for remaining activity (Platelet-derived growth factor receptor beta (PDGFRB, Homo sapiens, UniProt P09619)).
It gave 96.9% for remaining activity (Serine/threonine-protein kinase PLK1 (PLK1, Homo sapiens, UniProt P53350)).
The remaining activity was 84.6% (Serine/threonine-protein kinase VRK1 (VRK1, Homo sapiens, UniProt Q99986)).
It gave 96.9% for remaining activity (Fibroblast growth factor receptor 2 (FGFR2, Homo sapiens, UniProt P21802)).
For Serine/threonine-protein kinase ULK1 (ULK1, Homo sapiens, UniProt O75385): remaining activity read 91.2%.
The remaining activity was 76.2% (Activin receptor type-1 (ACVR1, Homo sapiens, UniProt Q04771)).
It gave 108% for remaining activity (Serine/threonine-protein kinase Sgk3 (SGK3, Homo sapiens, UniProt Q96BR1)).
For Mitogen-activated protein kinase kinase kinase kinase 5 (MAP4K5, Homo sapiens, UniProt Q9Y4K4): remaining activity read 100%.
The remaining activity was 101% (Tyrosine-protein kinase HCK (HCK, Homo sapiens, UniProt P08631)).
It gave 103% for remaining activity (Serine/threonine-protein kinase TAO1 (TAOK1, Homo sapiens, UniProt Q7L7X3)).
It gave 94.6% for remaining activity (BDNF/NT-3 growth factors receptor (NTRK2, Homo sapiens, UniProt Q16620)).
For Dual serine/threonine and tyrosine protein kinase (DSTYK, Homo sapiens, UniProt Q6XUX3): remaining activity read 98.8%.
RAF proto-oncogene serine/threonine-protein kinase (RAF1, Homo sapiens, UniProt P04049) — remaining activity: 94.8%.
Insulin receptor-related protein (INSRR, Homo sapiens, UniProt P14616) — remaining activity: 100%.
It gave 98.6% for remaining activity (Phosphorylase b kinase gamma catalytic chain, liver/testis isoform (PHKG2, Homo sapiens, UniProt P15735)).

Series 3 — method: protein-binding microarray; form: double-stranded DNA, one strand shown; matrix: in vitro; concentration: 940 nM top; notes: 60-bp whole probe; with: salmon DNA 0.4 mg/ml; relative to: random background probes; reading: higher = stronger binding; shared flanks, not repeated: GCCTAGCAC … GTCTTGATTCGCTTGACGCTGCTG
Target: Interferon regulatory factor 5, full length, phosphomimetic (IRF5, Homo sapiens, UniProt Q13568-2, residues 1-514, S451D/S453D/S456D/S462D)
Under “fitted relative affinity”, `GACGGTCTCGGACTGGGGTCGTGCTAG` is recorded as 0.768 z-score.
`TTAGATCTCAGGCTGGATTAGTGCTAG` — result for “fitted relative affinity”: -0.363 z-score.
`GACGATTTCAGCTCCGAGACGTGCTAG` — result for “fitted relative affinity”: -0.341 z-score.
Under “fitted relative affinity”, `GACGGACTGGGGTTTGGGGACGTGCTA` is recorded as -0.226 z-score.
`GACGGACTGGACATTGGGGACGTGCTA` — result for “fitted relative affinity”: -0.477 z-score.
Under “fitted relative affinity”, `GACGGTATCCTTCGCCTGACGTGCTAG` is recorded as 0.266 z-score.
`GACTATTTCAGTTTCGAGACGTGCTAG`: “fitted relative affinity” 5.29 z-score.
For `GACGGTCTCCTTTTCTTGACGTGCTAG`, “fitted relative affinity” read 1.06 z-score.

Series 4 — method: RNA Bind-n-Seq; form: RNA; matrix: in vitro; concentration: 20 nM; notes: 6-mer, flanks averaged, single round; with: 150 mM LiCl; relative to: input library; reading: higher = stronger binding
Target: TAR DNA-binding protein 43, full length, His tag (TARDBP, Homo sapiens, UniProt Q13148, residues 1-414)
Under “6-mer enrichment (R)”, `GACCGU` is recorded as 0.869.
For `UAUAAA`, “6-mer enrichment (R)” read 0.957.
Under “6-mer enrichment (R)”, `AUCCAG` is recorded as 0.847.
Under “6-mer enrichment (R)”, `UCUGUG` is recorded as 1.11.
`GCUUAC` — result for “6-mer enrichment (R)”: 0.878.
For `GGAGUU`, “6-mer enrichment (R)” read 1.06.
`CAAUUC` — result for “6-mer enrichment (R)”: 0.879.
`CAUAGU` — result for “6-mer enrichment (R)”: 0.893.

Further values, each from its own experiment
`CN(C)C(=O)/C(C#N)=C/c1ccc(-c2nc3cnc4[nH]ccc4c3n2C2CCCCC2)o1` gave a viability of 78.9% and 114% (normal-adjacent epithelium patient-derived organoids sample F; CellTiter-Glo; 0.1 µM; relative to: DMSO).

Excerpt of the above (series 2):
It gave 108% for remaining activity (Serine/threonine-protein kinase Sgk3 (SGK3, Homo sapiens, UniProt Q96BR1)).
RAF proto-oncogene serine/threonine-protein kinase (RAF1, Homo sapiens, UniProt P04049) — remaining activity: 94.8%.
It gave 105% for remaining activity (Platelet-derived growth factor receptor beta (PDGFRB, Homo sapiens, UniProt P09619)).
